Assay results gathered from unrelated publications.
Numbered parts are unrelated; each lists some results of a single study. Substitutions count along the parent as printed.

Series 1
Molecule: PhoQ, residues 284 288 289 292 302 303 ASVMEA
Technique: Sort-seq
Measured: YFP reporter
Medium: E. coli
Setting: PhoQ-PhoP variant library
Together with: 10 µM Mg2+
Reference: high Mg2+ state
Direction: higher = stronger signaling
Quantity: fold induction
PhoP, residues 12 14 15 18 19 TQAML (Escherichia coli, UniProt P23836): 19.7
PhoP, residues 12 14 15 18 19 NQCAL (Escherichia coli, UniProt P23836): 17.7
PhoP, residues 12 14 15 18 19 LHTVL (Escherichia coli, UniProt P23836): 32.4

Series 2
Target: Ras GTPase-activating protein-binding protein 1, full length (G3BP1, Homo sapiens, UniProt Q13283)
Sequence of UniProt Q13283 (whole entry, looked up): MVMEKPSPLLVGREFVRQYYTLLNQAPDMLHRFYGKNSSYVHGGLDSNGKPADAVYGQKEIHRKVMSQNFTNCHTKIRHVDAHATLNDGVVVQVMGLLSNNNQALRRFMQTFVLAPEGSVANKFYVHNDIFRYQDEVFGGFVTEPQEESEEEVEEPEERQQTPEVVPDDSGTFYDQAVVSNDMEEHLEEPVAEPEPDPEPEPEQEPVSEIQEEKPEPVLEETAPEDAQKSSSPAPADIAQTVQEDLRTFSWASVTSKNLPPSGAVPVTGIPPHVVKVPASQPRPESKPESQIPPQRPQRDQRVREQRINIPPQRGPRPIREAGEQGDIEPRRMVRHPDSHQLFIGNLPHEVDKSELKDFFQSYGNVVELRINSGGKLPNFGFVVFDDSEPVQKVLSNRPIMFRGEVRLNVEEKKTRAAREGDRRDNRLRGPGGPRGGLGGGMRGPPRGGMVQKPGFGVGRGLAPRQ
Technique: RNA Bind-n-Seq
Molecule type: RNA
Medium: in vitro
Concentration: 200 nM
Setting: whole 134-nt RNA, ends assumed
Together with: 150 mM LiCl
Reference: input library
Direction: higher = stronger binding
Quantity: log2 enrichment
Library: 7-deaza-guanosine replaces G
Constant ends, left off below: GGGAGUUCUACAGUCCGACGAUC … UGGAAUUCUCGGGUGUCAAGG
CCUCAAGUCCUGUGCUACACAUCGUAUGUACCGAAUCGGUUUUUGGUGGAGGAAAGUAUUAUGUUACGCCGUUCGGAUCUGCACUUCCAG: 0.232
UCAAGUCCUGUGCUACACAUCGUAUGUACCGAAUCGGGUGGGAAAGGGAAAGGGAAAGUAUUAUGUUACGCCGUUCGGAUCUGCACUUCC: -0.824
AAGUCCUGUGCUACACAUCGUAUGUACCGAAUCGGAAAAAAAGGAAAAAAAGGAGGAAAGUAUUAUGUUACGCCGUUCGGAUCUGCACUU: -0.772
UGUAUCCCUGUUUCUUUUCUCCCUACAGAAACAUAUGAGGAUUUUGAUACCAGGAUACUUGAGGUAGGCAUGCAGAAUUAAAUACCUGGU: 0.483
CCUGUGCUACACAUCGUAUGUACCGAAUCGGGGAAAAAGGGGAAAGGGGUUUUUUUGGGGAAAGUAUUAUGUUACGCCGUUCGGAUCUGC: 0.952
CUCAAGUCCUGUGCUACACAUCGUAUGUACCGAAUCGGGUUGGGGUUGGUUGGAAAGUAUUAUGUUACGCCGUUCGGAUCUGCACUUCCA: 0.226

Series 3
Target: CCNE1, cyclin fold, Cln2 fusion (human)
Technique: yeast growth competition, sequencing
Medium: yeast
Setting: weak parent motif
Reference: not given
Direction: higher = stronger binding
Quantity: normalised enrichment score
Starting sequence: SLBP docking peptide (human); ARYKRKLLINDFG
ARYKRKYLINDFG [L7Y]: 0.766
ARYKRKLLINAFG [D11A]: 1.13
ARYKRKLLINFFG [D11F]: 1.36
ARYKRKNLINDFG [L7N]: 0.976
ARYKRKLKINDFG [L8K]: -0.553

Series 4
Target: Histone acetyltransferase KAT6A, winged helix 1, GST fusion (KAT6A, Homo sapiens, UniProt Q92794, residues 1-85)
Technique: protein binding microarray
Molecule type: double-stranded DNA, one strand shown
Medium: in vitro
Concentration: not given
Setting: 8-mer, flanks averaged, mean of 2 arrays, mostly near background
Reference: not given
Direction: higher = stronger binding
Quantity: E-score
Residues (chain): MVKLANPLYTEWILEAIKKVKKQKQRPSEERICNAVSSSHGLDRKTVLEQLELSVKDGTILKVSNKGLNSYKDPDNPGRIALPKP
ATCGAGCA: -0.221
CGGGTATA: 0.206
GACACCAC: -0.126
CCTTTCCG: 0.192
CAGGTCGC: 0.102
GACCCTCA: -0.285
CCAAGGTA: -0.132

Excerpt of the above (series 2):
UGUAUCCCUGUUUCUUUUCUCCCUACAGAAACAUAUGAGGAUUUUGAUACCAGGAUACUUGAGGUAGGCAUGCAGAAUUAAAUACCUGGU: 0.483
CUCAAGUCCUGUGCUACACAUCGUAUGUACCGAAUCGGGUUGGGGUUGGUUGGAAAGUAUUAUGUUACGCCGUUCGGAUCUGCACUUCCA: 0.226
